# Measured values from different studies.
# A part holds a random share of what one study measured. Several values in a cell are separate wells, animals, samples, runs or records.
# UniProt P42336, sequence (whole entry, unmodified, looked up): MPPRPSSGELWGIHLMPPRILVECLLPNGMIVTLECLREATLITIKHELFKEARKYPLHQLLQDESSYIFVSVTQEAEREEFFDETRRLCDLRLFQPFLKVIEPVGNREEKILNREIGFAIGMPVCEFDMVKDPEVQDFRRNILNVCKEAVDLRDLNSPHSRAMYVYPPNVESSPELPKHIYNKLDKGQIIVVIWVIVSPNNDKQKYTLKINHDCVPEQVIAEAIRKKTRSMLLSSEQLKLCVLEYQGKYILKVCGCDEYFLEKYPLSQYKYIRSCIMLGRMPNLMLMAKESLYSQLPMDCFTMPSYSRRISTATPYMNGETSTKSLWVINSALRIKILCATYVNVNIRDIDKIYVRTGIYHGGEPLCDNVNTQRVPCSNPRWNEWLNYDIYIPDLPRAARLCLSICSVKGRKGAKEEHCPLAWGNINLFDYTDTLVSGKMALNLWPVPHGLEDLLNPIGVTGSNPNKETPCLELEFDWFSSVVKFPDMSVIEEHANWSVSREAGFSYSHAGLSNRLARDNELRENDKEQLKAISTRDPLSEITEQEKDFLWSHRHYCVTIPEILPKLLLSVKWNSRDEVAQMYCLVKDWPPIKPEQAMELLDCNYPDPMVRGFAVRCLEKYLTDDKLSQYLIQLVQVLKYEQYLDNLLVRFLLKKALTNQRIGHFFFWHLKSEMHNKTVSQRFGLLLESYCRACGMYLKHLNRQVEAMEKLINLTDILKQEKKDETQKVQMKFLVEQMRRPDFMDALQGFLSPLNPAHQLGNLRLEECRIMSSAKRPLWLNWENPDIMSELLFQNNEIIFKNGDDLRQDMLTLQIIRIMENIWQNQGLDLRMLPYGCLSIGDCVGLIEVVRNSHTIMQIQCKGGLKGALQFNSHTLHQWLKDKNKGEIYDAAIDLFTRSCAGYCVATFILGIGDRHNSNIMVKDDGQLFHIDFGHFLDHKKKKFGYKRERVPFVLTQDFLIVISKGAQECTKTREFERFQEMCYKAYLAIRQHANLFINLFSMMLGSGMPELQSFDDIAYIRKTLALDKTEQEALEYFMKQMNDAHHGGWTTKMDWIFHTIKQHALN
# UniProt P53355, sequence (whole entry, looked up): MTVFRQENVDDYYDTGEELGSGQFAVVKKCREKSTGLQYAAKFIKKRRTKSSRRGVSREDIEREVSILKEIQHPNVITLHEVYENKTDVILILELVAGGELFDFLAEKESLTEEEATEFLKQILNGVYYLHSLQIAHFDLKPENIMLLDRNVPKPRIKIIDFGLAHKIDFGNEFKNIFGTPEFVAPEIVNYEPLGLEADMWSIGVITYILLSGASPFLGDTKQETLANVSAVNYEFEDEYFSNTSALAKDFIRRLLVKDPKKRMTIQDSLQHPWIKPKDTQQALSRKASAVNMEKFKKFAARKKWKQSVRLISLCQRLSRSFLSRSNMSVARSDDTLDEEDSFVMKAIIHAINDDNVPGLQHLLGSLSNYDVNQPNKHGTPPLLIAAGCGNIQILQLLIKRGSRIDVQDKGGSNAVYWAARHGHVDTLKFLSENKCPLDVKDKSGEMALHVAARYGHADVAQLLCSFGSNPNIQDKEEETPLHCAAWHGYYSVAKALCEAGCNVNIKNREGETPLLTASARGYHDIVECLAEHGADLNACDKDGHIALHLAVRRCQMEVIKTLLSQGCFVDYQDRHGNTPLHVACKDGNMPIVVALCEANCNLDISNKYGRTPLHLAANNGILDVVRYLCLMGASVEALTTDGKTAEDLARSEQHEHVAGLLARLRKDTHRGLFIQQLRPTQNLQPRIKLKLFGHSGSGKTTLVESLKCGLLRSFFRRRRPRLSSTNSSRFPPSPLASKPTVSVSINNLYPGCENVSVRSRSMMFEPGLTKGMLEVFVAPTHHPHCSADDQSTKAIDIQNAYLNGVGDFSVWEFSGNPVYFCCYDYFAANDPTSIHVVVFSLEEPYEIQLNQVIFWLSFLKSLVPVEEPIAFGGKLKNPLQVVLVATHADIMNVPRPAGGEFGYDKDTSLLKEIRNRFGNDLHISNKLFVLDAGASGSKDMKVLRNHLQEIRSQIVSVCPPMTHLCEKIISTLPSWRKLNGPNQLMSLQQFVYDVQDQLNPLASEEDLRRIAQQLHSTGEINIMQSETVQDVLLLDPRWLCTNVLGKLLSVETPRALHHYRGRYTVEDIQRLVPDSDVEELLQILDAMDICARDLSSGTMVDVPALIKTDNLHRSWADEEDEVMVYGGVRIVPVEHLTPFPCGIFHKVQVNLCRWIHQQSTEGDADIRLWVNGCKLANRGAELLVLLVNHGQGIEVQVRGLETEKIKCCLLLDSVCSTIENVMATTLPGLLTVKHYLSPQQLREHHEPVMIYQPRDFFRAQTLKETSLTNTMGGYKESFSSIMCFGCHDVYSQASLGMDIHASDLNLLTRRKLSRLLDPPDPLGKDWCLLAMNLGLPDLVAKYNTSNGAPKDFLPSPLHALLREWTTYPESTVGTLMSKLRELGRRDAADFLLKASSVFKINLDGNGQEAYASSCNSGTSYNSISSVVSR
# UniProt P42338, sequence (whole entry, looked up): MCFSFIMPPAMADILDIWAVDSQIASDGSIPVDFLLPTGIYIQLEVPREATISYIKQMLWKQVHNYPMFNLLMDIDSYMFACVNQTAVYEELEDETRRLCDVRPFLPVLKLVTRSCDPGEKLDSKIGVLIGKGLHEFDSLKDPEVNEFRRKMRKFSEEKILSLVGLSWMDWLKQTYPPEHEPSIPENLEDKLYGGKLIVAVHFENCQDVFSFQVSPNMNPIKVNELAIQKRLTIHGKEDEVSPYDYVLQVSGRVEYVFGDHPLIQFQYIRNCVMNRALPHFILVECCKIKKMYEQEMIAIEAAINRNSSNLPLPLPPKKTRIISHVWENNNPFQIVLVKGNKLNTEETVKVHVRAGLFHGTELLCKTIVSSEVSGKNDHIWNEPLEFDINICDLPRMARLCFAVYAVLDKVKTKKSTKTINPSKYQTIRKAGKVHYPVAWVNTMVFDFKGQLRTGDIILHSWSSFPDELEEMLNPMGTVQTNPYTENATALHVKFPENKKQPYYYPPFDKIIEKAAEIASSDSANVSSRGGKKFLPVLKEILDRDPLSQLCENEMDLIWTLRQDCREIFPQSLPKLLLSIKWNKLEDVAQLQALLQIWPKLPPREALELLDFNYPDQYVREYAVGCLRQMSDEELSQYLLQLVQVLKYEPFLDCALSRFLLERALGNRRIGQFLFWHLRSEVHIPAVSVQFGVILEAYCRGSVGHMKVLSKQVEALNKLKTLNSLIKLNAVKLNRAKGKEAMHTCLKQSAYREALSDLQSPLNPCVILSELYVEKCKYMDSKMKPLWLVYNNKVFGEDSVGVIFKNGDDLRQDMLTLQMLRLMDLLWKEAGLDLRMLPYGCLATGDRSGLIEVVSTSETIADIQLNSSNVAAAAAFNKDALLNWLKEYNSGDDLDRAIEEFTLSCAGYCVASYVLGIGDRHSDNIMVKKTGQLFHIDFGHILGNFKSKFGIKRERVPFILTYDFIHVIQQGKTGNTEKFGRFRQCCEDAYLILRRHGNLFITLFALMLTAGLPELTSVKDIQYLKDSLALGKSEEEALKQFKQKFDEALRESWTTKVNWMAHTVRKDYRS
# UniProt O00141, sequence (whole entry, looked up): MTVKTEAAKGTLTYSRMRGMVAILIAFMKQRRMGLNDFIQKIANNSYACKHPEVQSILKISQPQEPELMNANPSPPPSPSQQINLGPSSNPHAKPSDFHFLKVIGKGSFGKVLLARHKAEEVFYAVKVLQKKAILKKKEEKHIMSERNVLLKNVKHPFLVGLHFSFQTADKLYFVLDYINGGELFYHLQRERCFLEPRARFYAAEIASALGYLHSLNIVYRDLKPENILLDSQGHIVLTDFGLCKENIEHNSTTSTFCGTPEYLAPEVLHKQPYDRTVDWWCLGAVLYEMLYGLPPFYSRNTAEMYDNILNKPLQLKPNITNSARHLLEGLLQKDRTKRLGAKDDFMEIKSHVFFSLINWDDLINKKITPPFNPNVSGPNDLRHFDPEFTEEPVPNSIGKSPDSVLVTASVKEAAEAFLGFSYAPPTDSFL
# UniProt Q9BQI3, sequence (whole entry, looked up): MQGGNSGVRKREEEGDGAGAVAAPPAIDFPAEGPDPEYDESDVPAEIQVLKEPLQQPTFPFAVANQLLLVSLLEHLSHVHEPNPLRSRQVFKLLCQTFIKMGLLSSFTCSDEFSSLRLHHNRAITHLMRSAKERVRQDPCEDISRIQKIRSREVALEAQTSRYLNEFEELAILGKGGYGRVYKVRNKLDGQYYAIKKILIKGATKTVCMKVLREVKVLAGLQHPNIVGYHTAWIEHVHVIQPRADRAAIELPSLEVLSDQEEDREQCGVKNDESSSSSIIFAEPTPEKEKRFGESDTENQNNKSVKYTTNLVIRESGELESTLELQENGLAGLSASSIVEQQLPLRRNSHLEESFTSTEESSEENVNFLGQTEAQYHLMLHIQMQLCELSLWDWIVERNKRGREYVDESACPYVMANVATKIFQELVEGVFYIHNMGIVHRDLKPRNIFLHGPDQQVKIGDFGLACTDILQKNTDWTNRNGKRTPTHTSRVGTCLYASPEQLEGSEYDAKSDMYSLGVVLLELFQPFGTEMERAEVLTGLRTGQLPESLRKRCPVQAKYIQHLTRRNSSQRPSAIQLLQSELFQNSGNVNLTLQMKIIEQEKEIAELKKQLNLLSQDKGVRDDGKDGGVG
# UniProt P78368, sequence (whole entry, looked up): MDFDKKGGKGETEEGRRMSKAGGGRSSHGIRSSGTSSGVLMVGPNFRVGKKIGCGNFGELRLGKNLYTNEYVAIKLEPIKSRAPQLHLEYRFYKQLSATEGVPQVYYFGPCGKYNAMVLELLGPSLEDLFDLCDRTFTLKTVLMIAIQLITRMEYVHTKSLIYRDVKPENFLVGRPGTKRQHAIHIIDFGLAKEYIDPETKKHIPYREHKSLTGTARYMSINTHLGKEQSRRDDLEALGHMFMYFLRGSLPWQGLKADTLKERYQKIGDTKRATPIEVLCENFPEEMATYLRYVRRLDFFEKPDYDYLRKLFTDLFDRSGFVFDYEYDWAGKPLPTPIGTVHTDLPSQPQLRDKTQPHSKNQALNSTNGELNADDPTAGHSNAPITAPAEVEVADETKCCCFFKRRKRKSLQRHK

# Block 1
# Compound: C[C@H]1CC[C@H](n2c3cnccc3c3cnc(Nc4ccc5c(n4)CCN(C(=O)CO)C5)nc32)CC1
# Read-out: cell-free assay
# Tested at: 1 µM
target,remaining signal [%]
"MARK2 (Homo sapiens, UniProt Q7KZI7)",63
"CAMKK1 (Homo sapiens, UniProt Q8N5S9)",40
"PRKCH (Homo sapiens, UniProt P24723)",100
"RIOK2 (Homo sapiens, UniProt Q9BVS4)",7.6
"NEK4 (Homo sapiens, UniProt P51957)",100
"EGFR (Homo sapiens, UniProt P00533, L858R)",95
"EGFR (Homo sapiens, UniProt P00533, T790M)",61
"CILK1 (Homo sapiens, UniProt Q9UPZ9)",7.7
"PRKCD (Homo sapiens, UniProt Q05655)",83

# Block 2
# Compound: CC(C)S(=O)(=O)c1ccc2nccc(Nc3ccc4sc(C5CCCC5)nc4c3)c2c1.Cl
# Tested at: 1 µM
target,read-out,action,remaining activity
"ERBB4 (Homo sapiens, UniProt Q15303)",kinase activity,inhibitor,78%
"EIF2AK1 (Homo sapiens, UniProt Q9BQI3)",kinase activity,inhibitor,124%
"ULK2 (Homo sapiens, UniProt Q8IYT8)",kinase activity,inhibitor,98%
"PIM3 (Homo sapiens, UniProt Q86V86)",kinase activity,inhibitor,98%
"TXK (Homo sapiens, UniProt P42681)",kinase activity,inhibitor,85%
"ERN1 (Homo sapiens, UniProt O75460)",kinase activity,inhibitor,100%
"PRKCI (Homo sapiens, UniProt P41743)",kinase activity,inhibitor,105%
"EPHA8 (Homo sapiens, UniProt P29322)",kinase activity,inhibitor,99%
MAPK1(h) (human),,,105% and 104%
"PIP5K1C (Homo sapiens, UniProt O60331)",kinase activity,inhibitor,97%

# Block 3
# Structure (SMILES): O=C(NC[C@@H]1[C@H]2CN(C(=O)OCc3cc(C(F)(F)F)cc(C(F)(F)F)c3)C[C@@H]12)c1ccc2[nH]nnc2c1
# Read-out: cell-free assay
# Method: competition with immobilised ligand
# Tested at: 1 µM
target,remaining binding
"PIK3CA (Homo sapiens, UniProt P42336, H1047L)",100%
"PIK3CA (Homo sapiens, UniProt P42336, E545A)",96%
"Ribosomal protein S6 kinase alpha-5, C-terminal kinase domain (RPS6KA5, Homo sapiens, UniProt O75582)",100%
"CSNK1G2 (Homo sapiens, UniProt P78368)",100%
"PTK6 (Homo sapiens, UniProt Q13882)",96%
"PIK3CB (Homo sapiens, UniProt P42338)",100%
"FES (Homo sapiens, UniProt P07332)",95%
"MAP4K3 (Homo sapiens, UniProt Q8IVH8)",89%
"STK17B (Homo sapiens, UniProt O94768)",91%
"DAPK1 (Homo sapiens, UniProt P53355)",93%
"EGFR (Homo sapiens, UniProt P00533, G719C)",100%
"SGK1 (Homo sapiens, UniProt O00141)",100%
"Tyrosine-protein kinase ABL1, non-phosphorylated (ABL1, Homo sapiens, UniProt P00519, T315I)",82%
"TYRO3 (Homo sapiens, UniProt Q06418)",75%
"BUB1 (Homo sapiens, UniProt O43683)",61%
"CSNK1G1 (Homo sapiens, UniProt Q9HCP0)",97%
"PIK3CA (Homo sapiens, UniProt P42336, E545K)",100%
"ANKK1 (Homo sapiens, UniProt Q8NFD2)",73%
"PKMYT1 (Homo sapiens, UniProt Q99640)",100%
"PTK2 (Homo sapiens, UniProt Q05397)",100%
"CDC42BPA (Homo sapiens, UniProt Q5VT25)",100%

# Block 4
# Target: Serine/threonine-protein kinase Nek7 (NEK7, Homo sapiens, UniProt Q8TDX7)
# Read-out: enzyme activity
# Action: inhibitor
# Tested at: 0.5 µM
# Reference: control
# Target sequence (Q8TDX7 1-302): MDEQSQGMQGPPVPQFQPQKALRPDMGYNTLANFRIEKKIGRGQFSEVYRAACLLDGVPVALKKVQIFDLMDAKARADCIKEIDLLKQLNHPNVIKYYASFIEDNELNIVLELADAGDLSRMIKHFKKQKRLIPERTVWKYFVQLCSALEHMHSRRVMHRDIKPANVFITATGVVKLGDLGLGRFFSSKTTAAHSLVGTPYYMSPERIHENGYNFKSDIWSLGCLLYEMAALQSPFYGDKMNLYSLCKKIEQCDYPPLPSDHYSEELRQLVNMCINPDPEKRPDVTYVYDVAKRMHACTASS
SMILES,remaining activity [%]
CO[C@H]1C[C@@H]2CC[C@@H](C)[C@@](O)(O2)C(=O)C(=O)N2CCCC[C@H]2C(=O)O[C@H]([C@H](C)C[C@@H]2CC[C@@H](O)[C@H](OC)C2)CC(=O)[C@H](C)/C=C(\C)[C@@H](O)[C@@H](OC)C(=O)[C@H](C)C[C@H](C)/C=C/C=C/C=C/1C,104
O=C(Nc1cccc(Nc2cc(Nc3cccc(C(F)(F)F)c3)ncn2)c1)C1CC1,97.8
Cn1c2ccccc2c2c3c(c4c5ccccc5n(CCC#N)c4c21)CNC3=O,97
Cn1sc(=O)n(Cc2ccccc2)c1=O,101
Cc1ccc(Nc2nccc(N(C)c3ccc4c(C)n(C)nc4c3)n2)cc1S(N)(=O)=O,101
O=C1NC(=O)C(c2cn(CCCO)c3ncccc23)=C1c1cnccn1,95.4
CCOC(=O)c1c(C)[nH]c(/C=C2\C(=O)Nc3ccccc32)c1C,102
N#CC(C#N)=C(N)/C(C#N)=C/c1ccc(O)cc1,98.9
COc1ccc(C(=O)Nc2sc3c(c2C(N)=O)CCCC3)cc1OC,99
Nc1ccc2ncnc(NCCc3ccc(Oc4ccccc4)cc3)c2c1,96
COc1cc2ncnc(Nc3ccc(Oc4ccccc4)cc3)c2cc1OC,103
COc1ccc(OC)c2c(=S)c3ccccc3[nH]c12,97.2
O=c1c2ccccc2[nH]c(=S)n1CCN1CCC(=C(c2ccc(F)cc2)c2ccc(F)cc2)CC1,100
COc1ccc(CNC(=O)Nc2ncc([N+](=O)[O-])s2)cc1,99.4
O=S(=O)(c1cccc2cnccc12)N1CCCNCC1,97.5
CC(C)[C@H](CO)Nc1nc(Nc2cc(N)cc(Cl)c2)c2ncn(C(C)C)c2n1,89

# Repeated from above (block 3):
target,remaining binding
"EGFR (Homo sapiens, UniProt P00533, G719C)",100%
"PIK3CA (Homo sapiens, UniProt P42336, H1047L)",100%
"MAP4K3 (Homo sapiens, UniProt Q8IVH8)",89%
"SGK1 (Homo sapiens, UniProt O00141)",100%
"STK17B (Homo sapiens, UniProt O94768)",91%
"PKMYT1 (Homo sapiens, UniProt Q99640)",100%
"PTK2 (Homo sapiens, UniProt Q05397)",100%
"Ribosomal protein S6 kinase alpha-5, C-terminal kinase domain (RPS6KA5, Homo sapiens, UniProt O75582)",100%
